Assay results gathered from unrelated publications.
Protocols differ between the studies behind these lines. ± marks the error that the study gave.
CYP2B6: Cytochrome P450 2B6 (CYP2B6, Homo sapiens, UniProt P20813)
Oprk1: Kappa-type opioid receptor (Oprk1, Mus musculus, UniProt P33534)
uncharacterized protein: uncharacterized protein (Streptococcus mutans serotype c, UniProt Q8DS94)

SMILES | tested on | test | system | conditions | measurement | result
CC[C@H](C)[C@H](NC(=O)[C@H](CO)NC(=O)[C@H](C)NC(=O)[C@H](Cc1ccc(OP(=O)(O)O)cc1)NC(=O)[C@@H](NC(=O)[C@H](CO)NC(=O)[C@H](CC(C)C)NC(=O)CCOCCOCCOCCOCCOCCOCCOCCOCCNC(=O)[C@@H](NC(=O)[C@H](CC(C)C)NC(=O)[C@H](CC(=O)O)NC(=O)[C@H](CC(C)C)NC(=O)[C@H](CC(=O)O)NC(=O)[C@@H](NC(=O)[C@H](Cc1ccc(OP(=O)(O)O)cc1)NC(=O)[C@H](CC(N)=O)NC(=O)[C@@H](N)CC(C)C)[C@@H](C)CC)C(C)C)[C@@H](C)O)C(=O)N[C@@H](CC(N)=O)C(=O)N[C@@H](Cc1ccccc1)C(=O)N[C@@H](CCC(N)=O)C(=O)O | Tyrosine-protein phosphatase non-receptor type 11 (PTPN11, Homo sapiens, UniProt Q06124) | enzyme activity, activator, fluorescence |  |  | EC50 | 354 nM
CCCCCc1cc(O)c2c(c1)OC(C)(C)C1CCC(CO)=CC21 (stereo not drawn) | CYP2B6 | enzyme activity, inhibitor | human, liver microsomes | pH 7.4 | IC50 | 8200 nM
CC(=O)N[C@H](CCCNC(=N)N)C(=O)N[C@@H](Cc1ccc(O)cc1)C(=O)N[C@@H](CCCNC(=N)NC(=O)NCCCCN)C(=O)N[C@@H](CC(C)C)C(=O)N[C@@H](CCCNC(=N)N)C(=O)N[C@@H](Cc1ccc(O)cc1)C(N)=O | Neuropeptide Y receptor type 4 (NPY4R, Homo sapiens, UniProt P50391) | calcium signal, agonist |  |  | EC50 | 756 nM
CC[C@H](C)[C@H](NC(=O)[C@H](CC(N)=O)NC(=O)[C@H](Cc1c[nH]cn1)NC(=O)[C@@H](NC(=O)[C@H](CCC(N)=O)NC(=O)[C@H](CCCNC(=N)N)NC(=O)[C@@H](NC(=O)[C@@H](N)CCC(=O)O)[C@@H](C)CC)[C@@H](C)O)C(=O)N[C@@H](Cc1ccccc1)C(=O)N[C@@H](CC(=O)O)C(=O)N[C@@H](CC(N)=O)C(=O)N[C@@H](Cc1ccccc1)C(=O)N[C@@H](Cc1ccccc1)C(=O)N[C@@H](CCCCN)C(=O)N[C@@H](CCCNC(=N)N)C(=O)N[C@@H](CCCNC(=N)N)C(=O)O | histidine kinase ComD (Streptococcus pneumoniae serotype 2, UniProt A0A0H2ZM50) | reporter gene, agonist | Streptococcus pneumoniae, D39 comX::lacZ | 30 min, pH 7.3, 37 °C | EC50 | > 10000 nM
Cc1cc(O)c(I)c(C)c1C[C@H](N)C(=O)N[C@H](C)C(=O)N[C@@H](Cc1ccccc1)C(=O)N[C@@H](Cc1ccccc1)C(N)=O | Oprk1 | agonist |  |  | EC50 | > 500 nM
CCCCCc1cc(O)c2c(c1)OC(C)(C)C1CCC(C)=CC21 (single isomer, unassigned; (-)) | CYP2B6 | inhibitor | HEK293 overexpressing CYP2B6, recombinant microsomes | pH 7.4, corrected for incubation binding, added: bupropion 12.5 to 100 µM | Ki | 250 ± 43 nM
CC(C)C[C@H](NC(=O)[C@H](CO)NC(=O)CNC(=O)[C@@H](N)CO)C(=O)N[C@@H](CO)C(=O)N[C@H](C(=O)N[C@H](Cc1ccccc1)C(=O)N[C@@H](Cc1ccccc1)C(=O)N[C@@H](CCCNC(=N)N)C(=O)N[C@@H](CC(C)C)C(=O)N[C@@H](Cc1ccccc1)C(=O)N[C@@H](CC(N)=O)C(=O)N[C@@H](CCCNC(=N)N)C(=O)N[C@@H](CO)C(=O)N[C@@H](Cc1ccccc1)C(=O)N[C@H](C(=O)N[C@@H](CCC(N)=O)C(=O)N[C@@H](C)C(=O)O)[C@@H](C)O)[C@@H](C)O | uncharacterized protein |  | Streptococcus mutans |  | EC50 | > 1000 nM
N=C(N)NCCC[C@H](N)C(=O)N1CCC[C@H]1C(=O)N[C@@H](CCCCN)C(=O)N1CCC[C@H]1C(=O)N[C@@H](CCC(N)=O)C(=O)N[C@@H](CCC(N)=O)C(=O)N[C@@H](Cc1ccccc1)C(N)=O | Substance-P receptor (TACR1, Homo sapiens, UniProt P25103) | calcium signal, agonist, fluorescence |  |  | EC50 | 1600 nM
NCCCC[C@H](NC(=O)CNC(=O)CNC(=O)[C@H](CCCCN)NC(=O)CNC(=O)CNC(=O)CNC(=O)[C@H](CCCCN)NC(=O)CNC(=O)CNC(=O)[C@H](CCCCN)NC(=O)CNC(=O)CNC(=O)CNC(=O)[C@H](CCCCN)NC(=O)CNC(=O)CNC(=O)[C@H](CCCCN)NC(=O)CNC(=O)CNC(=O)CNC(=O)[C@H](CCCCN)NC(=O)CNC(=O)CNC(=O)[C@H](CCCCN)NC(=O)[C@H](CO)NC(=O)[C@H](Cc1ccc(O)cc1)NC(=O)CNC(=O)CNC(=O)CN)C(=O)NCC(=O)O |  | binding, SPR two-state model | rVλ6Wil fibrils |  | Kd | 34 nM
CCN(Cc1ccccc1)C(=O)CCc1nc(CN2CCN(C(=O)Cc3ccc(OC)c(OC)c3)CC2)no1 | Potassium voltage-gated channel subfamily KQT member 5 (KCNQ5, Homo sapiens, UniProt Q9NR82) | ion current, opener, whole-cell patch clamp | transfected cells |  | EC50 | 27.1 ± 3.06 nM
N=C(N)NCCC[C@@H]1NC(=O)[C@H](CCCCNC(=O)CCOCCOCCOCCOCCNC(=O)CC[C@H](NC(=O)CCOCCOCCOCCOCCNC(=O)CC[C@H](NC(=O)CN2CCN(CC(=O)O)CCN(CC(=O)O)CCN(CC(=O)O)CC2)C(=O)NCCOCCOCCOCCOCCC(=O)N[C@@H](CCC(=O)NCCOCCOCCOCCOCCC(=O)NCCCC[C@@H]2NC(=O)[C@@H](Cc3ccccc3)NC(=O)[C@H](CC(=O)O)NC(=O)CNC(=O)[C@H](CCCNC(=N)N)NC2=O)C(=O)NCCOCCOCCOCCOCCC(=O)NCCCC[C@@H]2NC(=O)[C@@H](Cc3ccccc3)NC(=O)[C@H](CC(=O)O)NC(=O)CNC(=O)[C@H](CCCNC(=N)N)NC2=O)C(=O)NCCOCCOCCOCCOCCC(=O)NCCCC[C@@H]2NC(=O)[C@@H](Cc3ccccc3)NC(=O)[C@H](CC(=O)O)NC(=O)CNC(=O)[C@H](CCCNC(=N)N)NC2=O)NC(=O)[C@@H](Cc2ccccc2)NC(=O)[C@H](CC(=O)O)NC(=O)CNC1=O [indium-111 labelled] |  |  | female athymic nude mice, liver | intravenous, 3 µCi, 24 h, U-87 MG glioma xenograft | tissue uptake | 1.5 ± 0.17 %ID/g
C[C@@H](NC(=O)[C@@H](CCC(N)=O)NC(=O)[C@@H](C)NC(=O)[C@@H](CCCCN)NC(=O)[C@@H](CCC(N)=O)NC(=O)[C@@H](C)NC(=O)[C@@H](CCCCN)NC(=O)[C@@H](CCC(N)=O)NC(=O)[C@@H](C)NC(=O)[C@@H](CCC(N)=O)NC(=O)[C@@H](CCCCN)NC(=O)[C@@H](C)NC(=O)[C@@H](CCC(N)=O)NC(=O)[C@@H](CCCCN)NC(=O)[C@@H](C)NC(=O)[C@@H](CCC(N)=O)NC(=O)[C@@H](C)NC(=O)[C@@H](CCCCN)NC(=O)[C@@H](CCC(N)=O)NC(=O)[C@@H](C)NC(=O)[C@@H](CCCCN)NC(=O)[C@@H](CO)NC(=O)[C@@H](Cc1ccc(O)cc1)NC(=O)CNC(=O)CNC(=O)CN)C(=O)N[C@H](CCCCN)C(=O)N[C@H](CCC(N)=O)C(=O)N[C@H](C)C(=O)N[C@H](CCCCN)C(=O)N[C@H](CCC(N)=O)C(=O)O |  | binding, SPR Langmuir fit | rVλ6Wil fibrils | pH 7.4 | Kd | 5.4 nM
CC(C)C[C@H](NC(=O)[C@H](C)NC(=O)[C@H](CCC(N)=O)NC(=O)[C@@H](NC(=O)[C@H](Cc1ccccc1)NC(=O)[C@H](CO)NC(=O)[C@H](CCCNC(=N)N)NC(=O)[C@H](CC(N)=O)NC(=O)[C@H](Cc1ccccc1)NC(=O)[C@H](CC(C)C)NC(=O)[C@H](CCCNC(=N)N)NC(=O)[C@H](Cc1ccccc1)NC(=O)[C@H](Cc1ccccc1)NC(=O)[C@@H](NC(=O)[C@H](CO)NC(=O)[C@H](CC(C)C)NC(=O)[C@H](CO)NC(=O)CN)[C@@H](C)O)[C@@H](C)O)C(=O)NCC(=O)N[C@@H](CCCCN)C(=O)O | uncharacterized protein |  | Streptococcus mutans |  | EC50 | 23 nM
NCC1CC1c1cc(O)ccc1OCC1CC1 (single isomer, unassigned; (-)) | 5-hydroxytryptamine receptor 2C (HTR2C, Homo sapiens, UniProt P28335) | calcium signal, agonist |  |  | EC50 | 361 nM
C[n+]1ccc(C(=O)NC2CCC3(O)C4Cc5ccc(O)c6c5C3(CC[N+]4(C)CC3CC3)C2O6)cc1 (stereo not drawn) | Oprk1 | GTPγS binding, agonist, radiometric |  | cell membranes | EC50 | 143 nM
CC(C)C[C@H](NC(=O)[C@H](C)NC(=O)[C@H](CCC(N)=O)NC(=O)[C@@H](NC(=O)[C@H](Cc1ccccc1)NC(=O)[C@H](CO)NC(=O)[C@H](CCCNC(=N)N)NC(=O)[C@H](CC(N)=O)NC(=O)[C@H](Cc1ccccc1)NC(=O)[C@H](CC(C)C)NC(=O)[C@H](CCCNC(=N)N)NC(=O)[C@H](Cc1ccccc1)NC(=O)[C@H](Cc1ccccc1)NC(=O)[C@@H](NC(=O)[C@H](CO)NC(=O)[C@H](CC(C)C)NC(=O)[C@@H](CO)NC(=O)CNC(=O)[C@@H](N)CO)[C@@H](C)O)[C@@H](C)O)C(=O)NCC(=O)N[C@@H](CCCCN)C(=O)O | uncharacterized protein |  | Streptococcus mutans |  | EC50 | 160 nM
C=Cc1ccc(NC(=O)CSc2nnc(-c3cccnc3)n2CC)cc1 | Orco (Drosophila melanogaster, UniProt Q9VNB5) | calcium mobilization, agonist | HEK293 expressing Orco |  | EC50 | 102000 nM
CC(C)CC(=O)NC1CCCC1=O (stereo not drawn) | HTH-type quorum-sensing regulator RhlR (rhlR, Pseudomonas aeruginosa, UniProt P54292) | reporter gene, agonist, refers to: rhlI-gfp fluorescence | PAO-JP2 reporter |  | EC50 | 11200 nM

For quick reference, copied from above:
SMILES | tested on | test | system | conditions | measurement | result
CC(C)C[C@H](NC(=O)[C@H](CO)NC(=O)CNC(=O)[C@@H](N)CO)C(=O)N[C@@H](CO)C(=O)N[C@H](C(=O)N[C@H](Cc1ccccc1)C(=O)N[C@@H](Cc1ccccc1)C(=O)N[C@@H](CCCNC(=N)N)C(=O)N[C@@H](CC(C)C)C(=O)N[C@@H](Cc1ccccc1)C(=O)N[C@@H](CC(N)=O)C(=O)N[C@@H](CCCNC(=N)N)C(=O)N[C@@H](CO)C(=O)N[C@@H](Cc1ccccc1)C(=O)N[C@H](C(=O)N[C@@H](CCC(N)=O)C(=O)N[C@@H](C)C(=O)O)[C@@H](C)O)[C@@H](C)O | uncharacterized protein |  | Streptococcus mutans |  | EC50 | > 1000 nM
N=C(N)NCCC[C@H](N)C(=O)N1CCC[C@H]1C(=O)N[C@@H](CCCCN)C(=O)N1CCC[C@H]1C(=O)N[C@@H](CCC(N)=O)C(=O)N[C@@H](CCC(N)=O)C(=O)N[C@@H](Cc1ccccc1)C(N)=O | Substance-P receptor (TACR1, Homo sapiens, UniProt P25103) | calcium signal, agonist, fluorescence |  |  | EC50 | 1600 nM
